{"data": "Measured values collected from several papers", "target": "Amine oxidase [flavin-containing] A (MAOA, Homo sapiens, UniProt P21397)", "effect on": "enzyme activity", "action": "inhibitor", "note": "Protocols differ between the studies behind these lines.", "sequence of UniProt P21397 (whole entry, looked up)": "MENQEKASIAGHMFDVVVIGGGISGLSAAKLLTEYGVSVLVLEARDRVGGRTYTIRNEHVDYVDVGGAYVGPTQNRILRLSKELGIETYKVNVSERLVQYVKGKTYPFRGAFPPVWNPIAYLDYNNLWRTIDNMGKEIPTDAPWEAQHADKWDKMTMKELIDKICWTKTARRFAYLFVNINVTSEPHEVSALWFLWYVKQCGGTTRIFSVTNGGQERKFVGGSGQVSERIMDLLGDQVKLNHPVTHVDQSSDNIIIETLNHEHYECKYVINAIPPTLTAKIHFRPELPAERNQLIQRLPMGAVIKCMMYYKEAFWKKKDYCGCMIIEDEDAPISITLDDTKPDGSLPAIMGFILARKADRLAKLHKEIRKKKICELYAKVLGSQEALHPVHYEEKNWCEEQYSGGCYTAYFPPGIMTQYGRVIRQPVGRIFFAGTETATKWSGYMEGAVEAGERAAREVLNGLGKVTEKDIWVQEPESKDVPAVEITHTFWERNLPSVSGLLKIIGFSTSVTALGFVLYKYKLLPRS"}
{"SMILES": "O=C1c2cc(Br)ccc2NC12CCCC2", "IC50 [µM]": 20.6}
{"SMILES": "O=c1ccoc2ccc(OCCCCCN3CCCCCC3)cc12", "method": "fluorescence", "IC50 [µM]": 30.1}
{"SMILES": "O=C1c2ccccc2N(Cc2cccc(Br)c2)C12CCCC2", "IC50 [µM]": 5.58}
{"SMILES": "Oc1ccc(C2=Nn3c(nnc3-c3ccc(-n4nc(-c5ccccc5O)nc4-c4ccccc4O)cc3)SC2)cc1", "method": "fluorescence", "IC50 [µM]": 23.4}
{"SMILES": "Fc1cccc(COc2ccc(/C=N/NC(=S)Nc3ccccc3)cc2)c1", "method": "absorbance", "IC50 [µM]": "> 40"}
{"SMILES": "COc1cc(/C=C/C(=O)NC(C)C(N)=O)ccc1OCc1ccccc1 (stereo not drawn)", "method": "fluorescence", "IC50 [µM]": 89.5}
{"SMILES": "O=C(/C=C/c1cccc(Br)c1)c1cc2ccccc2oc1=O", "IC50 [µM]": "> 40"}
{"SMILES": "NC(=O)N/N=C/c1ccccc1OCc1ccccc1", "method": "absorbance", "IC50 [µM]": "> 40"}
{"SMILES": "O=C(/C=C/c1ccc(Cl)cc1)c1cc2ccccc2oc1=O", "IC50 [µM]": "> 40"}
{"SMILES": "O=C1CCCC2=C1C(c1c[nH]c3ccccc13)n1c(sc(=Cc3c[nH]c4ccccc34)c1=O)=N2 (stereo not drawn)", "method": "fluorescence", "IC50 [µM]": 0.41}
{"SMILES": "Oc1ccccc1C1=Nn2c(nnc2-c2ccc(-n3nc(-c4ccccc4O)nc3-c3ccccc3O)cc2)SC1", "method": "fluorescence", "IC50 [µM]": 4.71}
{"SMILES": "O=C(/C=C/c1ccccc1)c1ccc(N2CCNCC2)cc1", "setting": "with preincubation", "IC50 [µM]": "> 40"}
{"SMILES": "O=C(Cc1ccccc1Nc1c(Cl)cccc1Cl)NNC(=S)Nc1ccc(Cl)c(Cl)c1", "method": "fluorescence", "IC50 [µM]": 20.3}
{"SMILES": "O=C(/C=C/c1ccc(F)cc1)c1cc2ccccc2oc1=O", "IC50 [µM]": "> 40"}
{"SMILES": "O=C(/C=C/c1ccc([N+](=O)[O-])cc1)c1ccc(N2CCNCC2)cc1", "setting": "with preincubation", "IC50 [µM]": 35.3}
{"SMILES": "O=C1c2cc(F)ccc2NC12CCCC2", "IC50 [µM]": 30.7}
{"SMILES": "CCc1ccc(/C=C/C(=O)c2ccc(N3CCNCC3)cc2)cc1", "setting": "with preincubation", "IC50 [µM]": 35.6}
{"SMILES": "O=C1c2ccccc2N(Cc2cccc(Cl)c2)C12CCCC2", "IC50 [µM]": 8.95}
{"SMILES": "CN(C)c1ccc(/C=C/C(=O)c2ccc(N3CCNCC3)cc2)cc1", "setting": "with preincubation", "IC50 [µM]": 34.1}
{"SMILES": "N#Cc1ccc(C2=Nn3c(nnc3-c3ccc(-n4nc(-c5ccccc5O)nc4-c4ccccc4O)cc3)SC2)cc1", "method": "fluorescence", "IC50 [µM]": 55.9}
{"SMILES": "COc1ccc(C2N=C(SCCCSc3nnc(Cc4ccccc4Nc4c(Cl)cccc4Cl)n3-c3ccc(Cl)c(Cl)c3)NC(C)=C2C(C)=O)cc1 (stereo not drawn)", "method": "fluorescence", "IC50 [µM]": 2.36}
{"SMILES": "NC(=S)N/N=C/c1ccccc1OCc1ccccc1", "method": "absorbance", "IC50 [µM]": "> 40"}
{"SMILES": "O=C1c2cc(Cl)ccc2N(Cc2ccccc2)C12CCCC2", "IC50 [µM]": 19.2}
{"SMILES": "NC(=O)N/N=C/c1ccc(OCc2ccccc2)cc1", "method": "absorbance", "IC50 [µM]": "> 40"}
{"SMILES": "C#CCCCOc1ccc(C2CC2N)cc1 (stereo not drawn)", "IC50 [µM]": 0.5}
{"SMILES": "CNC(=S)N/N=C/c1ccc(OCc2cccc(F)c2)cc1", "method": "absorbance", "IC50 [µM]": "> 40"}
{"SMILES": "O=C(/C=C/c1ccc(Cl)cc1)c1ccc(N2CCNCC2)cc1", "setting": "with preincubation", "IC50 [µM]": "> 40"}
{"SMILES": "S=C(N/N=C/c1ccc(OCc2ccccc2)cc1)Nc1ccccc1", "method": "absorbance", "IC50 [µM]": 17.6}
{"SMILES": "COC(=O)c1ccc(-n2nc(-c3ccccc3O)nc2-c2ccccc2O)cc1", "method": "fluorescence", "IC50 [µM]": 33.6}
{"SMILES": "NC(=S)N/N=C/c1ccc(OCc2cccc(F)c2)cc1", "method": "absorbance", "IC50 [µM]": 9.76}
{"SMILES": "COc1ccc(C2=Nn3c(nnc3-c3ccc(-n4nc(-c5ccccc5O)nc4-c4ccccc4O)cc3)SC2)cc1", "method": "fluorescence", "IC50 [µM]": 2.91}
{"SMILES": "S=C(N/N=C/c1cccc(OCc2ccccc2)c1)Nc1ccccc1", "method": "absorbance", "IC50 [µM]": 4.49}
{"SMILES": "O=C(/C=C/c1ccccc1Br)c1cc2ccccc2oc1=O", "IC50 [µM]": "> 40"}
{"note": "A few entries again:"}
{"SMILES": "COc1ccc(C2N=C(SCCCSc3nnc(Cc4ccccc4Nc4c(Cl)cccc4Cl)n3-c3ccc(Cl)c(Cl)c3)NC(C)=C2C(C)=O)cc1 (stereo not drawn)", "method": "fluorescence", "IC50 [µM]": 2.36}
{"SMILES": "NC(=S)N/N=C/c1ccccc1OCc1ccccc1", "method": "absorbance", "IC50 [µM]": "> 40"}
{"SMILES": "O=C1c2cc(Cl)ccc2N(Cc2ccccc2)C12CCCC2", "IC50 [µM]": 19.2}
